Published values pooled from the literature.
Each numbered part is a random draw from the data of one study; scales do not carry over between parts.

Sample 1
Target: Max-binding protein MNT, bHLH-zipper, MAX partner unstated (MNT, Homo sapiens, UniProt Q99583, residues 220-300)
Method: protein-binding microarray
Form: double-stranded DNA, one strand shown
Matrix: in vitro
Tested at: not given
Setting: k-mer, scored over probes, only values ≥0.25
Reading: higher = stronger binding
Quantity: E-score
Residues (chain): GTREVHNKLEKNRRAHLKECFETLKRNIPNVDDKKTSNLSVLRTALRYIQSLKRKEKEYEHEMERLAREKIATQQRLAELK
CGTGGGCC: 0.305
CACCCCGC: 0.283
GCATGGAC: 0.369
CGCACCCC: 0.336
CGCAACCA: 0.268
CAGGCACG: 0.36
CACGCGCA: 0.455
CATGTCCA: 0.293

Sample 2
Target: Replicase polyprotein 1ab, main protease (rep, Severe acute respiratory syndrome coronavirus 2, UniProt P0DTD1)
Effect on: enzyme activity
Mode: inhibitor
Tested at: 20 µM
Setting: primary screen
Quantity: inhibition
Oc1cc2c(cc1C(c1ccc(C(F)(F)F)cc1)N1CCOCC1)OCO2 (stereo not shown): 81.4%
Cc1cc(-c2cc(O)ccc2Cl)cc2nnc(Nc3ccc(OCCN4CCCC4)cc3)nc12: 30.7%
O=c1cc(-c2ccc(O)cc2)oc2cc(O)cc(O)c12: 94.5%

Sample 3
Target: Centromere-binding protein 1, full length, N-terminal tag (CBF1, Saccharomyces cerevisiae, UniProt P17106, residues 1-351)
UniProt P17106, sequence (whole entry, looked up): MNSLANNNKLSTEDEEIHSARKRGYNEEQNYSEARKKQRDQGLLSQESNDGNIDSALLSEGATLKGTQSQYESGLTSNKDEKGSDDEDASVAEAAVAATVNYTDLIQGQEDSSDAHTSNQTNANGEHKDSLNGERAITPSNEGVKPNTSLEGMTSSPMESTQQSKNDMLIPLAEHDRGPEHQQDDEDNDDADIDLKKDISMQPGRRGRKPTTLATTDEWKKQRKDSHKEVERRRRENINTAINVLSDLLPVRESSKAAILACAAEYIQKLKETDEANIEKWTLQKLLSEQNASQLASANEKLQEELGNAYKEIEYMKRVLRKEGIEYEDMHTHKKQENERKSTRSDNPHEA
Method: protein-binding microarray
Form: double-stranded DNA, one strand shown
Matrix: in vitro
Tested at: 0.8 µM
Setting: whole 60-bp probe, no competitor
Reading: higher = stronger binding
Quantity: fluorescence intensity
CTATCTTTTTCTTTTCTGGTGACTAATCGGTGGTTCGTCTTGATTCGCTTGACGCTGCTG: 601 a.u.
GAATTAGATGGTAAACACGTTGTCTTGATGACTTAGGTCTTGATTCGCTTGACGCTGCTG: 613 a.u.
CTAATTGAATTAAGTAACATCATTGTTTAACTTTTCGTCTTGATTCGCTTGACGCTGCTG: 477 a.u.
GAACTAAAAAGTTCCCACGTTCTCTTGTACGACTAGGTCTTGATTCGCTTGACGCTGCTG: 546 a.u.
CTAGAGTAAGAAGTACTCGTGCACATTTCAATGTTCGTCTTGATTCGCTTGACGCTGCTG: 657 a.u.
GAATTAATCAAGAATGTCACCAATTTTCTGCGATAGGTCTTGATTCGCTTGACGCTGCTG: 494 a.u.
CTATACAAAAAAGAGCACGCTGCTTTATTTATATTCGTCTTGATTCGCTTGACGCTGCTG: 587 a.u.
CTAGAAACTATGCTGTGTGTGACCAGGCGAACATTCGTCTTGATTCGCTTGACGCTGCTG: 614 a.u.

Sample 4
Cell line: HEK-293T/ACE2
Tested at: concentration not given
Time: 16 (unit not given)
Relative to: vehicle
Quantity: viability
CC(=O)Oc1ccccc1C(=O)O: 102%
CCOC(=O)C1=C(C)NC(C)=C(C(=O)OC)C1c1cccc(Cl)c1Cl (stereo not shown): 96.6%
Nc1nc2ncc(CNc3ccc(C(=O)N[C@@H](CCC(=O)O)C(=O)O)cc3)nc2c(=O)[nH]1: 86.9%

Sample 5
Target: Replicase polyprotein 1ab, nsp13 helicase (rep, Severe acute respiratory syndrome coronavirus 2, UniProt P0DTD1)
Mode: inhibitor
Tested at: 20 µM
Quantity: inhibition
[NH-]c1c[n+](N2CCOCC2)no1: 3.4%
CCCC(=O)O: 5.18%
CC(C)NCCCn1c(Sc2cc3c(cc2I)OCO3)nc2c(N)ncnc21: 4.84%
CCN(c1ccccc1)c1cc(=NC)n(C)c(C)n1: 0.72%
CCc1ccc(C2=CC(C)(C)Sc3ccc(C#Cc4ccc(C(=O)O)cc4)cc32)cc1: 2.82%
COc1cc2c(c(OC)c1OC)-c1c(cc3c(c1OC)OCO3)C[C@H](C)[C@H](C)C2: 2.3%
C[C@]12CCC(=O)C=C1CC[C@@H]1[C@@H]2C(=O)C[C@]2(C)C(=O)CC[C@@H]12: -3.13%
CCCN(C/C=C/I)C1CCc2ccc(O)cc2C1 (stereo not shown): 0.24%
COc1ccc(CNC(=O)c2sc3nc(C)cc(C)c3c2N)cc1: 7.77%
CCn1c(=O)[nH]c2ccccc21: 3.23%
Cc1cc(C(=O)N2Cc3cnn(C)c3Nc3ccccc32)ccc1CNC(=O)N1CCC[C@H]1C(=S)N1CCCN(C)CC1: 5.12%
NC(=O)c1cccc(-c2cccc(OC(=O)NC3CCCCC3)c2)c1: -1.58%
CN(C)Cc1cccc(N/C(=C2\C(=O)Nc3cc(C(N)=O)ccc32)c2ccccc2)c1: 10.9%
NC(=O)C[C@H](N)C(=O)O: 6.17%
CCCC(=O)OCOC(=O)C1=C(C)NC(C)=C(C(=O)OC)C1c1cccc(Cl)c1Cl (stereo not shown): 3.86%
CNC[C@H](O)c1cccc(O)c1: 0.38%
OCC(Br)(Br)Br: -3.29%
N#C/C(=C\c1ccc(O)c(O)c1)C(=O)NCCCCc1ccccc1: 7.41%
CC(N)Cc1ccc(O)cc1 (stereo not shown): -0.63%
NC(=O)C[S+]([O-])C(c1ccccc1)c1ccccc1 (stereo not shown): 2.71%
Cc1ccc(O)c([C@H](CCN(C(C)C)C(C)C)c2ccccc2)c1: -0.17%
O=C(O)Cn1nnc(-c2cc(N3CCC(Oc4cc(F)ccc4Br)CC3)no2)n1: 2.56%
NC(N)=NCCC(=O)O: -3.28%
CC(C)[C@@H]1CC[C@@H](C)C[C@@H]1P(=O)(c1ccccc1)c1ccccc1: 12.4%
N#C/C(=C\c1cn(-c2ccccc2)c2ccccc12)C(=O)O: -0.11%

Sample 6
Target: Sal-like protein 4, full length isoform B (SALL4, Homo sapiens, UniProt Q9UJQ4-2, residues 1-616)
Method: universal PBM
Form: double-stranded DNA, one strand shown
Matrix: in vitro
Tested at: not given
Setting: 8-mer, flanks averaged, mean of replicates
Reading: higher = stronger binding
Quantity: E-score
Construct (chain): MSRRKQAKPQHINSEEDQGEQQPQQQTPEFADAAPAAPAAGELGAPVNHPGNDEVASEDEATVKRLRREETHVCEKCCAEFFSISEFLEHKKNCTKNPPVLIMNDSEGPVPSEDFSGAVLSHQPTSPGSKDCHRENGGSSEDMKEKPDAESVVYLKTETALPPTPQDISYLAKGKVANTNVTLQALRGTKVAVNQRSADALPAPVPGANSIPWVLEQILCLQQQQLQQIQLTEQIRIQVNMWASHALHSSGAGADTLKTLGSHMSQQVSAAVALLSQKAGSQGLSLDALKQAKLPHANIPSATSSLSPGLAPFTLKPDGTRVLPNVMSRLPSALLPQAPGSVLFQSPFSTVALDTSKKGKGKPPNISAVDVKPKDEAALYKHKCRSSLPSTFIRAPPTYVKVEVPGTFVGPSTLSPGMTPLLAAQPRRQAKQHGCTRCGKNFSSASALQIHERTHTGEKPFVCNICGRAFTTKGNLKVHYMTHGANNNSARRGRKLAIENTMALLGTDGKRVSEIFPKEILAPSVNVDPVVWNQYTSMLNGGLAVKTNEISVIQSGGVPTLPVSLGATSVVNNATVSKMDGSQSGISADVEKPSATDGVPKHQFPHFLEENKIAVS
CCTGGATA: -0.0985
CTGGCGTC: -0.191
AAACCGGC: -0.36
CAGGACAA: 0.0432
GCTTGGAA: -0.0953
ATCTTCTA: 0.0761
ATAACTGG: 0.187
TCCCCCAA: -0.152

Repeated from above (sample 2):
Cc1cc(-c2cc(O)ccc2Cl)cc2nnc(Nc3ccc(OCCN4CCCC4)cc3)nc12: 30.7%
Oc1cc2c(cc1C(c1ccc(C(F)(F)F)cc1)N1CCOCC1)OCO2 (stereo not shown): 81.4%
O=c1cc(-c2ccc(O)cc2)oc2cc(O)cc(O)c12: 94.5%
